Published values from different studies.
Compare with care: the assays were run in different laboratories. Numbers after ± are the reported error.
IDE: Insulin-degrading enzyme (IDE, Homo sapiens, UniProt P14735)

Compound	tested on	test	test system	setting	scale	measurement	value
Cc1[nH]c(C)c(-c2ccc(OCc3cc(F)cc(F)c3)nc2)c(=O)c1Br	Plasmodium yoelii		17XL	384-well		IC50	313 ± 65 nM
N#Cc1ccc2c(c1)[C@H]1CCCN(C(=O)c3ccc4[nH]cnc4c3)[C@H]1C2			human	40 mg, day 7		minimum ACTH level	3.5 pmol/L
Cc1cccc(-c2ccc([C@@H]3[C@@H](CO)N4C(=O)CCCCN(S(=O)(=O)c5ccccc5C(F)(F)F)C[C@@H]34)cc2)c1C	IDE	enzyme activity, inhibitor, fluorogenic peptide cleavage		partial inhibition curves, added: Mca-RPPGFSAFK(Dnp)-OH		EC50	100 nM
CCn1cc(C(=O)N2CCOCC2)c(=O)c2cc(NC3Cc4ccccc4C3)cnc21			human, fasted	oral suspension, 150 mg single dose, median		Tmax	2.5 h
NC(=S)NN=Cc1ncccc1N			human, plasma	intravenous, 50 mg, geometric mean		Vss	98 L
C=CC(=O)Nc1cc(Nc2nccc(Nc3cc(Cl)c(F)cc3C(C)(C)O)n2)c(OC)cc1N1CC[C@@H](N(C)C)C1			tumour-bearing mice	oral, dose not given, twice daily		body weight loss	< 15%
COC(=O)C(C(=O)OC)=S(NC(=O)C(C)(C)C)c1ccccc1 (stereo not drawn)			human liver microsomes		baseline: hepatic blood flow	metabolic stability	> 89%
O=C(Nc1nc2cccc(-c3ccc(CN4CCS(=O)(=O)CC4)cc3)n2n1)C1CC1		population PK model	human	oral		slower absorption mixture fraction	0.818
Cc1cn([C@H]2C[C@H]([18F])[C@@H](CO)O2)c(=O)[nH]c1=O		PET/CT, bi-exponential fit	Sprague-Dawley rat, nasal cavity	intranasal	baseline: dose	nasal clearance amplitude A	78.9%
COc1cc2c(NC3CCN(C4CCCCC4)CC3)nc(N3CCCN(C(C)C)CC3)nc2cc1OCCCN1CCCCC1	HBL-1			0.5 µM, 120 h		viability	142%
Nc1ncnc2c1c(Oc1cc(C(F)(F)F)ccn1)nn2[C@@H]1CCCC[C@H]1O			rabbit, liver microsomes			metabolic stability	stable
CCN1/C(=C/C(C)=O)Sc2ccc(F)cc21			cynomolgus monkey	oral, 10 mg/kg, 24 h post-dose		heart rate	97 ± 8 beats/min
CCC(=O)N(CCC(c1ccc2c(c1)OCO2)c1ccccc1OC)Cc1ccccc1 (stereo not drawn)			mouse, blood	i.p., 60 mg/kg twice daily, 2 weeks		Na/K ratio	36.8
Cc1cc(NC2CCN(C(=O)OC3CCN(C(=O)/C=C/CN(C)C)C3)CC2)n2ncc(C(C)C)c2n1 (stereo not drawn)		Phase I dose escalation CTCAE v4.0, item: Arthralgia	patients with advanced solid tumours	dose not given, TIW dosing any grade		patients with adverse event	0%
CN1C[C@H](COc2nccc3c(NCc4ccco4)cc(Cl)nc23)OC1=O			rabbit NZW female, isolated Langendorff heart	3 µM, 15 min		left ventricular peak systolic pressure	110 mmHg
CC(C)[C@H](C(=O)Nc1ccc(C(=O)NO)cc1)c1ccccc1	HBL-1			0.5 µM, 120 h		viability	7.47%
Nc1ncnc2c1ncn2[C@H]1C[C@@H]2OP(=O)(O)OC[C@H]3O[C@@H](n4cnc5c(N)ncnc54)C[C@@H]3OP(=O)(O)OC[C@H]2O1			non-tumour-bearing mice, blood	intravenous, 1 mg/kg		albumin to globulin ratio	1.35 ± 0.25
CCCCC[C@H](O)CC[C@@H]1[C@H]2Cc3cccc(OCC(=O)O)c3C[C@H]2C[C@H]1O		LC-MS/MS	Japanese IPAH/HPAH patients, plasma	inhaled, 54 µg		geometric mean AUC(0-last)	0.91 ng·h/mL
CC(=O)N1CCCCN2[C@H](CO)[C@@H](c3ccc(-c4cccc(C)c4)cc3)[C@@H]2C1	IDE	enzyme activity, inhibitor, fluorogenic kinetic		added: Mca-RPPGFSAFK(Dnp)-OH substrate		EC50	16500 nM
Cc1nc2cccc(OCC(C)(C)C(=O)NC(C)C)c2c(N)c1C(=O)O			male Swiss albino CD-1 mouse, bone marrow	oral, 2000 mg/kg, 36 h		micronucleated polychromatic erythrocytes	0.06%
COc1ccnc(C(N)=O)c1O		aerobic dark soil incubation	sandy loam soil	20 °C, persistence endpoint		DT50	9 days
Cc1c(Cl)c(C)[n+]([O-])c(Cl)c1-c1noc(-c2cc(O)c(O)c([N+](=O)[O-])c2)n1		item: Hyperhidrosis	healthy Chinese subjects	oral, 25 mg, 4 days		adverse drug reaction incidence	6.7%
Cc1ccc(N(C)C(=O)/C=C/c2ccco2)cc1		cold plate test	mice	oral, 30 mg/kg daily for 7 days, 15 min after dose, day 8		licking latency	19.4 ± 0.5 s
Cc1ccc([C@@H]2O[C@H](CO)[C@@H](O)[C@H](O)[C@H]2O)cc1Cc1ccc(-c2ccc(F)cc2)s1			Japanese type 2 diabetes patients	400 mg, day 3, 24 h urine collection	baseline: baseline	urinary chloride excretion change	-11.6 mEq
